# Assay results of several laboratories.
# Protocols differ between the studies behind these lines. Numbers after ± are the reported error.
# MAOA: Amine oxidase [flavin-containing] A (MAOA, Homo sapiens, UniProt P21397)
# UniProt P21397, sequence (whole entry, looked up): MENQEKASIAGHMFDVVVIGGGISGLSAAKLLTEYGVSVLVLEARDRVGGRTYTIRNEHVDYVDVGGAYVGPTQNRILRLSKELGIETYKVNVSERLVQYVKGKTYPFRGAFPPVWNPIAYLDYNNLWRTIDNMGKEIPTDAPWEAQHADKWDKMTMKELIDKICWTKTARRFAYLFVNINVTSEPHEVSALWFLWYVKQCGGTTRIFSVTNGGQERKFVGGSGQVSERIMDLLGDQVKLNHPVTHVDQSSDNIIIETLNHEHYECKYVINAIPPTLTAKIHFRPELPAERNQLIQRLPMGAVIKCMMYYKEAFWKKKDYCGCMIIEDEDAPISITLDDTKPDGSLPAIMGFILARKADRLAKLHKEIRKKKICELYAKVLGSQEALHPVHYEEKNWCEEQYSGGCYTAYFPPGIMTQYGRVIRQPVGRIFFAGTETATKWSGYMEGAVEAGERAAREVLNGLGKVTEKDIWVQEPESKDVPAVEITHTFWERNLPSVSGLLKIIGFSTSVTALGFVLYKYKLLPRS
# CDK4: Cyclin-dependent kinase 4 (CDK4, Homo sapiens, UniProt P11802)
# UniProt P11802, sequence (whole entry, looked up): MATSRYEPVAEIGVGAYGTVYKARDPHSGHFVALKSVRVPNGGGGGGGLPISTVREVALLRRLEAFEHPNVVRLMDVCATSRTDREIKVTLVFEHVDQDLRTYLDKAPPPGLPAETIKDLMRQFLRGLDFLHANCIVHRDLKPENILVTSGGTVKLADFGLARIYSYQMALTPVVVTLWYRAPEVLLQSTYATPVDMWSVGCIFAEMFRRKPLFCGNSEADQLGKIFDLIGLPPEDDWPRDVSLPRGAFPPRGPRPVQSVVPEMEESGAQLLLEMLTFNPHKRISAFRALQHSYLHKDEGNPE
# MARS2: Methionine--tRNA ligase, mitochondrial (MARS2, Homo sapiens, UniProt Q96GW9)
# UniProt Q96GW9, sequence (whole entry, looked up): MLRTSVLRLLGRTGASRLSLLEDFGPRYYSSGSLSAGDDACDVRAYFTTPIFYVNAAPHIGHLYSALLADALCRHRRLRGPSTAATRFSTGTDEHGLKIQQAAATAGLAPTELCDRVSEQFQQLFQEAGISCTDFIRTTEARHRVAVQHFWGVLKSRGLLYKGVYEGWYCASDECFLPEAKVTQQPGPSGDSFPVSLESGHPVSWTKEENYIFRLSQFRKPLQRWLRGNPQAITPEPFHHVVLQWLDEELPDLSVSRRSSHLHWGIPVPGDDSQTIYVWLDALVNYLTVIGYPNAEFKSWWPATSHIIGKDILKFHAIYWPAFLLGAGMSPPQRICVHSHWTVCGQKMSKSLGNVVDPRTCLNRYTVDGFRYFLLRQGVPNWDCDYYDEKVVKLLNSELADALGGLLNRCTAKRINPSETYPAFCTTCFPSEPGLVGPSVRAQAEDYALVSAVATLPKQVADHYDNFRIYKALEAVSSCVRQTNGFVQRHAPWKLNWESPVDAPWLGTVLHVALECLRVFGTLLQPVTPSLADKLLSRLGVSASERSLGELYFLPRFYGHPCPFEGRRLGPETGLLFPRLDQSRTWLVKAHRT
# VKORC1: Vitamin K epoxide reductase complex subunit 1 (VKORC1, Homo sapiens, UniProt Q9BQB6)
# UniProt Q9BQB6, sequence (whole entry, looked up): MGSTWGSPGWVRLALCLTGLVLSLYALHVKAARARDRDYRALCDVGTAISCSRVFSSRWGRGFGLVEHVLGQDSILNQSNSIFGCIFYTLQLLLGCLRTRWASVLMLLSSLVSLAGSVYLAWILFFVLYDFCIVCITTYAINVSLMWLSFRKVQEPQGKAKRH
# DDR2: Discoidin domain-containing receptor 2 (DDR2, Homo sapiens, UniProt Q16832)
# UniProt Q16832, sequence (whole entry, looked up): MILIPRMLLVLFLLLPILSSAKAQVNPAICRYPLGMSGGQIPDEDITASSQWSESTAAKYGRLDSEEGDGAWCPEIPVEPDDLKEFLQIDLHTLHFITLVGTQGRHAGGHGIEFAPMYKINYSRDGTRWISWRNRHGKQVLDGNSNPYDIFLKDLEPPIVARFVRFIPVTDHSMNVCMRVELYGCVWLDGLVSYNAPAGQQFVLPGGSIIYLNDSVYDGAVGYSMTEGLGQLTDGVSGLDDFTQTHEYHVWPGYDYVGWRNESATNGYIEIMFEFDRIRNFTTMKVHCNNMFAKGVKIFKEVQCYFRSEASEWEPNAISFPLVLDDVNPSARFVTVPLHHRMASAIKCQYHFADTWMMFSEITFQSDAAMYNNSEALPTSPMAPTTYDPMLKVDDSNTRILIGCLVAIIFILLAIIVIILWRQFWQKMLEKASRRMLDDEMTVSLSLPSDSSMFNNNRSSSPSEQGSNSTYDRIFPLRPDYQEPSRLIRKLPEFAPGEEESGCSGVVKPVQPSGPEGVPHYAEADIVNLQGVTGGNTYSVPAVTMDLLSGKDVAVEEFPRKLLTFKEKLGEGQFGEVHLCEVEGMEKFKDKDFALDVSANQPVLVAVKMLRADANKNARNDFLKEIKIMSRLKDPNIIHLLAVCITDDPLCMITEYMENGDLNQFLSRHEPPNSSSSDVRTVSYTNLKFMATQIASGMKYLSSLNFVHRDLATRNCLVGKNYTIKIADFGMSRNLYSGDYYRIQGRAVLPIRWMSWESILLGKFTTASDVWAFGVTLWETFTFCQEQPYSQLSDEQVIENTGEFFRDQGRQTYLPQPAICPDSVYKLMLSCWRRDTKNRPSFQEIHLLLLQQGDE
# Gria2: Glutamate receptor 2 (Gria2, Rattus norvegicus, UniProt P19491)
# UniProt P19491, sequence (whole entry, looked up): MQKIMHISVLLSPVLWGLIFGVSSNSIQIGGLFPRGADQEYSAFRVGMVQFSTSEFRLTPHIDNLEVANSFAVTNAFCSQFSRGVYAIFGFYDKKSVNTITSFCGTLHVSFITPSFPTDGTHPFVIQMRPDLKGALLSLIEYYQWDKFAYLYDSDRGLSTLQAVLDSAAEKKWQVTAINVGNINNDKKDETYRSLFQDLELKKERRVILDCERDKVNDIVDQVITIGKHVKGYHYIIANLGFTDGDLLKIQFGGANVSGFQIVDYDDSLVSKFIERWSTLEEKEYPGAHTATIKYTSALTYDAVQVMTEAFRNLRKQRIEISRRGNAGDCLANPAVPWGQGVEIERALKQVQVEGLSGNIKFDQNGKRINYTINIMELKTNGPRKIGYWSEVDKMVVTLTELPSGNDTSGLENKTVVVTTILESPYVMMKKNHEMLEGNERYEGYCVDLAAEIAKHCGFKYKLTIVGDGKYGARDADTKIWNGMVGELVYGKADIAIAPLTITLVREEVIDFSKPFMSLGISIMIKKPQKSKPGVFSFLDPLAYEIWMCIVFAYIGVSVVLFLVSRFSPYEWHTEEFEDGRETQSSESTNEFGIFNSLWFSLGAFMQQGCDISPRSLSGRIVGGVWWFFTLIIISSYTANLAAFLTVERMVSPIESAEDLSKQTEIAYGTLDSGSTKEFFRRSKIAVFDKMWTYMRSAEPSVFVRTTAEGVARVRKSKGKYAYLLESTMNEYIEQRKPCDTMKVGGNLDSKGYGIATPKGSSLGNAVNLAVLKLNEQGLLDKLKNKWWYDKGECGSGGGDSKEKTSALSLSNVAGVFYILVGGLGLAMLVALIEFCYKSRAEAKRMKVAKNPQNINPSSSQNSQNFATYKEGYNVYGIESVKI
# HDAC11: Histone deacetylase 11 (HDAC11, Homo sapiens, UniProt Q96DB2)
# UniProt Q96DB2, sequence (whole entry, looked up): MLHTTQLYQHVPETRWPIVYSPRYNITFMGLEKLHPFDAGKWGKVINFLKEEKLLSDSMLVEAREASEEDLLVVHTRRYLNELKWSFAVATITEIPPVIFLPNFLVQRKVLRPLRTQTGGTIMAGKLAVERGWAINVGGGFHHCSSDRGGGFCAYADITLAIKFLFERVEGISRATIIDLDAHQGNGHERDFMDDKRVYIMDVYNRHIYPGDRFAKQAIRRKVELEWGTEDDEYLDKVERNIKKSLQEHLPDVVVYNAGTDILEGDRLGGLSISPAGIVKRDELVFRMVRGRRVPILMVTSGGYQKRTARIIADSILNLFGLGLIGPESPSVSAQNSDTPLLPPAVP
# SIRT5: NAD-dependent protein deacylase sirtuin-5, mitochondrial (SIRT5, Homo sapiens, UniProt Q9NXA8)
# UniProt Q9NXA8, sequence (whole entry, looked up): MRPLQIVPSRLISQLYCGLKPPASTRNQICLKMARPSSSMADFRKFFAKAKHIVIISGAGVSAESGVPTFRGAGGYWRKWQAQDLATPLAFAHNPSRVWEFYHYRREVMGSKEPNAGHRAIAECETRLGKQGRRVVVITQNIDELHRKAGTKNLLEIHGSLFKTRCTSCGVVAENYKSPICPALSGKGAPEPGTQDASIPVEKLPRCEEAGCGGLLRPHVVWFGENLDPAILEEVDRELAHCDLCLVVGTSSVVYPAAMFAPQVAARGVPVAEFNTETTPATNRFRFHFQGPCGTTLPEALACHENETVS
# DYRK1A: Dual specificity tyrosine-phosphorylation-regulated kinase 1A (DYRK1A, Homo sapiens, UniProt Q13627)
# UniProt P09936, sequence (whole entry, looked up): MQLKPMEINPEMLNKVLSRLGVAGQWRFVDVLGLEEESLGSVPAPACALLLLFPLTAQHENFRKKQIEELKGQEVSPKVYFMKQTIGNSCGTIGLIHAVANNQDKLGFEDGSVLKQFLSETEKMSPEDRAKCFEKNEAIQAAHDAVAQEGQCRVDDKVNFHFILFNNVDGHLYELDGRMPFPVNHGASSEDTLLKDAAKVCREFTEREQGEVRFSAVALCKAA
# UniProt Q00987, sequence (whole entry, looked up): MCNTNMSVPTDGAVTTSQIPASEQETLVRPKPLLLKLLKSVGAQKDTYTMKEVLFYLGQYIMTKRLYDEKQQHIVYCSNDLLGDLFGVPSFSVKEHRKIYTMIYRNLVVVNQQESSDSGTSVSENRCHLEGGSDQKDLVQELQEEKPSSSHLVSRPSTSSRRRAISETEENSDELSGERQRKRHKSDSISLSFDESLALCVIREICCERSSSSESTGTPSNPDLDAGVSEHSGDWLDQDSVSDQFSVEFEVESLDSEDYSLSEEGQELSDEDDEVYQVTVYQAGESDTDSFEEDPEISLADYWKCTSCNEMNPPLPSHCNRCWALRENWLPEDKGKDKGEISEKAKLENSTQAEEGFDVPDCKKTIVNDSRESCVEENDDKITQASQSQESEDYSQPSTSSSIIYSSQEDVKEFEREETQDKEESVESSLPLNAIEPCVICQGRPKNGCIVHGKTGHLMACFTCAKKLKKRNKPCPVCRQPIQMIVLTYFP
# UniProt Q13148, sequence (102-269, looked up): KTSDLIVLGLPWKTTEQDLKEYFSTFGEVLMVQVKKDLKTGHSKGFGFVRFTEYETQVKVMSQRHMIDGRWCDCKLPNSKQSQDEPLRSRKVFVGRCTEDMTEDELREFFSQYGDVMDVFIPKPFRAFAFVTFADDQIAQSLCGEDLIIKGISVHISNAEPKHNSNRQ
Compound,target,test,system,setting,IC50 [nM]
O=C1c2cc(O)cc(O)c2C(=O)c2c(O)cc(CO)cc21,MAOA,"enzyme activity, inhibitor",,,40600
Cc1nc2c(F)cc(-c3nc(Nc4ccc(CNC(=O)CCCCCC(=O)NO)cc4)ncc3F)cc2n1C(C)C,CDK4,,,,1.1
Oc1cc(NCCCNCc2cc(Cl)cc(Cl)c2)nc2ccccc12,MARS2,"enzyme activity, inhibitor",,,< 13
O=C(Cn1ncc2cccn2c1=O)N1CCOCC1,VKORC1,"carboxylation, inhibitor, cell-based",,,91600
Cc1cc(NC2CCN(C)CC2)ccc1-c1cc2c(N3CCC[C@H](C(=O)NCc4ccc(OC(F)(F)F)cc4)C3)ncnc2[nH]1,"MARK1 (Homo sapiens, UniProt Q9P0L2)","enzyme activity, inhibitor, ADP detection",,,> 8000
COC(=O)CCCCCNC(=O)c1ccc(Nc2ncc(F)c(-c3cc(F)c4nc(C)n(C(C)C)c4c3)n2)cc1,CDK4,,,,1.9
CN[C@H]1CCN(C(=O)c2c(C)cc(C(F)(F)F)nc2-c2ccnc3cc(CN4C(=O)C5C(C4=O)C5(C)C)sc23)C1 (stereo partly drawn),"USP7 (Homo sapiens, UniProt Q93009)","enzyme activity, inhibitor",,,22
N#Cc1ccc(Nc2nc(N)cc(Oc3ccc(-c4cccc(F)c4)cc3F)n2)cc1,"Gag-Pol polyprotein, reverse transcriptase (gag-pol, Human immunodeficiency virus 1, UniProt P03366)","enzyme activity, inhibitor",,,120
CCn1nc(Cl)c2c1-c1cnc(N)c(c1)O[C@H](C)c1cc(F)ccc1-c1nn(C)cc1C2,"EPHA4 (Homo sapiens, UniProt P54764)","enzyme activity, inhibitor, radiometric",,,510
CCCC(=O)OC1CCC2(C)C(CCC3(C)C2CC=C2C4C(C)C(C)CCC4(C(=O)O)CCC23C)C1(C)C (stereo not drawn),"UGT1A7 (Homo sapiens, UniProt Q9HAW7)","enzyme activity, inhibitor",,,> 100000
O=C(CN1CN(c2ccccc2F)C2(CCN(C(=O)c3cnc4[nH]ncc4c3)CC2)C1=O)NCC(F)(F)F,DDR2,ligand displacement,,,132000
COC(=O)Cc1cc2c(cc1C(=O)c1ccccc1Cl)OCO2,Gria2,"ion current, patch clamp",,,5020
Clc1cc(Cl)cc(CNCCCNc2nc3ncccc3[nH]2)c1,MARS2,"enzyme activity, inhibitor",,,< 13
Cn1c(S)nnc1-c1ccc(F)cc1,"TAR DNA-binding protein 43, residues 102-269 (TARDBP, Homo sapiens, UniProt Q13148)","protein-RNA binding, inhibitor, fluorescence polarization",,"40 nM protein, with: 10 nM RNA",8200 ± 1330
N#CN1CC[C@H](C(=O)Nc2nc3c(s2)CN(C(=O)Cn2cc(COCCOCCOCCOCCNC(=O)CCCC[C@@H]4SC[C@@H]5NC(=O)N[C@@H]54)nn2)CC3)C1,"UCHL1 (Homo sapiens, UniProt P09936)","enzyme activity, inhibitor, fluorescence",,with preincubation,640
C=CC[C@@H]1NC(=O)[C@H](CCSC)NC(=O)CCSCc2cccc(n2)CSCCNC(=O)[C@H](CCCCCC(=O)N(O)CCCCCC)NC1=O,HDAC11,"enzyme activity, inhibitor, fluorescence",,,660
Cc1nn(-c2cccc(N)c2)c(=O)c2cnc(Nc3ccc(N4CCNCC4)cc3)nc12,"PASK (Homo sapiens, UniProt Q96RG2)","enzyme activity, inhibitor",,,> 10000
CC1CC(C)CN(C(=O)Cn2ncc3cccn3c2=O)C1 (stereo not drawn),VKORC1,"carboxylation, inhibitor, ELISA",HEK293 stably expressing,"24 h, with: vitamin K epoxide 5 µM",5530
COC(=O)Cc1cc2c(cc1C(=O)c1cccc(I)c1)OCO2,Gria2,"glutamate-evoked current, inhibitor, whole-cell patch clamp","HEK293T, homomeric receptor",,5620
C=CC[C@@H]1NC(=O)CCSCc2nc3ccccc3nc2CSC/C=C/CNC(=O)[C@H](CCCCCC(=O)N(O)CCCCCC)NC1=O,HDAC11,"enzyme activity, inhibitor, fluorescence",,,180
N=C(N)NCCC[C@@H]1NC(=O)[C@H](Cc2csc3ccccc23)NC(=O)[C@@H](Cc2ccccc2)NC(=O)[C@H](Cc2ccccc2)NC(=O)[C@H](CCC(=O)N[C@@H](CCCCN)C(N)=O)NC(=O)[C@@H](CCCNC(=N)N)NC(=O)[C@H](CCCNC(=N)N)NC(=O)[C@@H](CCCNC(=N)N)NC1=O,"NAA40 (Homo sapiens, UniProt Q86UY6)","enzyme activity, inhibitor, fluorescence",,,9500
O=C(CN1CN(c2ccccc2)C2(CCN(C(=O)c3ccc4[nH]nnc4c3)CC2)C1=O)NCC(F)(F)F,DDR2,ligand displacement,,,65800
CC(=O)N[C@@H](CC(C)C)C(=O)N[C@H](C(=O)N[C@@H](Cc1ccccc1)C(=O)N[C@]1(C)CCCCCCC=CCCC[C@@](C)(C(=O)N[C@@H](CO)C(N)=O)NC(=O)[C@H](CC(C)C)NC(=O)[C@H](CCC(N)=O)NC(=O)[C@H](C)NC(=O)[C@H](Cc2c[nH]c3ccccc23)NC(=O)[C@H](Cc2ccc(O)cc2)NC(=O)[C@H](CCC(=O)O)NC1=O)[C@@H](C)O,"MDM2 (Homo sapiens, UniProt Q00987)","ligand displacement, FP",,,42
CCOc1cc(CN2CCC3(CC2)CN(c2ccc(C(=O)O)cc2)C(=O)N3)c(C2CC2)cc1C,"SSTR5 (Homo sapiens, UniProt P35346, N100T/Q99S)","cAMP level, agonist, GloSensor",AD293,"Q99S/N100T mutant, with: CST17 EC80 and forskolin",30.2
O=C(Nc1ccc(C(=O)Nc2ccc3c(O)cc(S(=O)(=O)O)cc3c2)cc1)c1ccccc1,"Trex1 (Mus musculus, UniProt Q91XB0)","protein-nucleic acid interaction, inhibitor, FP",,,1890
O=C(CCc1ccc(CNC(C(=O)OC2CCCC2)C2CCCCC2)cn1)NO (stereo not drawn),"HDAC4 (Homo sapiens, UniProt P56524)","enzyme activity, inhibitor",,,> 10000
COC(=O)CCCCC(=O)NCc1ccc(Nc2ncc(F)c(-c3cc(F)c4nc(C)n(C(C)C)c4c3)n2)cc1,CDK4,,,,1
CC(C)c1ccc(/C=C/C(=O)c2ccc(F)cc2)cc1,MAOA,"enzyme activity, inhibitor",,,12400
Cc1nc2c(F)cc(-c3nc(Nc4ccc(CC(=O)NCCCCC(=O)NO)cc4)ncc3F)cc2n1C(C)C,CDK4,,,,2
C=CC(=O)N1Cc2nc(-c3cc(-c4cc(Cl)cnc4Cl)c(F)cc3F)n(-c3ccncn3)c2C1,"ERBB2 (Homo sapiens, UniProt P04626)","HER2 phosphorylation, measured: pHER2 Y1221/1222",BT-474 (HER2 wild type),2 h,75
O=C(Nc1cccc(CN2CCc3nc[nH]c3C2)c1)c1cc(-c2ccccc2)n(-c2ccccc2)n1,"Genome polyprotein, NS2B-NS3 protease (dengue virus type 2, UniProt P29990)",enzyme activity,,with: AMC substrate 50 µM,23000
O=C(NC1CCC1)[C@H](Cc1c[nH]c2ccccc12)NC(=O)[C@H](CCCCNC(=S)NCCc1noc(=O)[nH]1)NS(=O)(=O)c1cccc(F)c1,SIRT5,"enzyme activity, inhibitor",,,108 ± 4
CC(C)c1ccc(/C=C/C(=O)c2ccc(Cl)cc2)cc1,MAOA,"enzyme activity, inhibitor",,,5680
Nc1ncc2c(n1)-c1c([nH]c3ccc(C4=CCOCC4)cc13)CCC2,DYRK1A,"enzyme activity, inhibitor, radiometric",,,520
Cc1nc2c(F)cc(-c3nc(Nc4ccc(NC(=O)CCCCCCC(=O)NO)cc4)ncc3F)cc2n1C(C)C,CDK4,,,,< 1.2
O=C(CN1CN(c2cccc(C(F)(F)F)c2)C2(CCN(C(=O)c3cnc4[nH]ncc4c3)CC2)C1=O)NCC(F)(F)F,DDR2,ligand displacement,,,13300
Cc1cc(C)c(S(=O)(=O)N(CC(=O)O)c2ccc(Nc3ccnc(N4CCCC4)n3)cc2)c(C)c1,"CDK7 (Homo sapiens, UniProt P50613)","enzyme activity, inhibitor",,,> 100000
CC(C)C[C@H](NC(=O)[C@@H](CCCCNC(=O)[C@@H](Cc1ccccc1)NC(=O)CCCCCCCNC(=O)CN1CCN(CC(=O)O)CCN(CC(=O)O)CCN(CC(=O)O)CC1)NC(=O)[C@H](Cc1ccc(O)cc1)NC(=O)[C@H](CO)NC(=O)[C@H](Cc1c[nH]c2ccccc12)NC(=O)[C@H](Cc1c[nH]cn1)NC(=O)[C@@H]1CCC(=O)N1)C(=O)N[C@@H](CCCNC(=N)N)C(=O)N1CCC[C@H]1C(=O)NCC(N)=O,"GNRHR (Homo sapiens, UniProt P30968)","ligand displacement, radioligand",,"pH 7.4, cell membranes",6.6
O=C(Cn1ncc2cccn2c1=O)NC(c1ccccc1)c1ccccc1,VKORC1,"carboxylation, inhibitor, cell-based",,,38900
Cc1cc(C(=O)NCC(F)c2ccc(Cl)cc2Cl)c(Oc2cccc(C3CC3)c2)nn1 (stereo not drawn),"serine palmitoyltransferase (Botrytis cinerea, UniProt A0A384JAG3+A0A384JQT2)",,,,9 ± 3
COC(=O)CCCCCCNC(=O)Cc1ccc(Nc2ncc(F)c(-c3cc(F)c4nc(C)n(C(C)C)c4c3)n2)cc1,CDK4,,,,2
CCn1c(=O)c(=O)n(CC)c2ccccc21,DYRK1A,"enzyme activity, inhibitor, ADP detection",,,550
N=C(N)NCCC[C@H](NC(=O)[C@H](CCCCNC(=S)NCCC(=O)O)NS(=O)(=O)c1cccc(F)c1)C(=O)NC1CCC1,SIRT5,"inhibitor, fluorogenic",,"pre-incubation 4 h, with: NAD+ 500 µM",47 ± 1
CCCCCCCC(=O)Nc1ccc(Nc2ncc(F)c(-c3cc(F)c4nc(C)n(C(C)C)c4c3)n2)cc1,CDK4,,,,14
C=CC(=O)N1C[C@H](C)N(c2nc(OC[C@@]34CCCN3C[C@H](F)C4)nc3c(F)c(-c4ccc(F)c5sc(N)c(C#N)c45)c(C(F)(F)F)cc23)C[C@H]1C,"GTPase KRas, GppNHp; with RAF1 RBD (KRAS, Homo sapiens, UniProt P01116, Q61H)",,,,3100 ± 830
